Results collected from several papers.
Every numbered part comes from another study and shows a few of its results, in no order. Changes are numbered by the printed parent chain.
Sequence of UniProt O15294 (whole entry, looked up): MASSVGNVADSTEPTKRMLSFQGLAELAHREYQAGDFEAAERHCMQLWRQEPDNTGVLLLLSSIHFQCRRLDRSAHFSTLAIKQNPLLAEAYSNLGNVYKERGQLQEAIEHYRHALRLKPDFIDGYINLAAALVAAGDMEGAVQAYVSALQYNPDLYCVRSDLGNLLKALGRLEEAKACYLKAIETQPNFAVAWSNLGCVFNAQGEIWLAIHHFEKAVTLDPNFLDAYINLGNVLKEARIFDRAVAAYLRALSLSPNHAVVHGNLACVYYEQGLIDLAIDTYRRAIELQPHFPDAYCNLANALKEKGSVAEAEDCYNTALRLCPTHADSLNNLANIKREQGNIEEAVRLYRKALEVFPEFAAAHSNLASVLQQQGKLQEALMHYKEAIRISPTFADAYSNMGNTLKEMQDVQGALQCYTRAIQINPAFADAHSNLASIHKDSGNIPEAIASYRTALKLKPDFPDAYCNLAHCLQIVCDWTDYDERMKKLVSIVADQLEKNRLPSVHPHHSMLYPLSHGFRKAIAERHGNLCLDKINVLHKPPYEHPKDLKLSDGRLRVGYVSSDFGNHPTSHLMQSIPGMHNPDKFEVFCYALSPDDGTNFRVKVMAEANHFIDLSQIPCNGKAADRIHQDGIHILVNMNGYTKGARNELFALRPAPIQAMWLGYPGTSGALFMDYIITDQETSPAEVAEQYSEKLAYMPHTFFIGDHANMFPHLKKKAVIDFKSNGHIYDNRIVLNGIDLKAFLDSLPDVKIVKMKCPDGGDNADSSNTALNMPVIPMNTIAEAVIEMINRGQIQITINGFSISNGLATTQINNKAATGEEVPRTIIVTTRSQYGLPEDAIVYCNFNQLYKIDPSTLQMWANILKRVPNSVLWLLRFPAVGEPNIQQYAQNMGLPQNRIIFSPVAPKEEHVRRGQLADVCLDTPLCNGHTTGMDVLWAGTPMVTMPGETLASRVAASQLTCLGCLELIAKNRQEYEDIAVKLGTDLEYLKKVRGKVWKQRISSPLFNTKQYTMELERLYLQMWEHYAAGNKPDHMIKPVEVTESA

Study 1
Target: Histone acetyltransferase KAT6A, winged helix 1, GST fusion (KAT6A, Homo sapiens, UniProt Q92794, residues 1-85)
Technique: protein binding microarray
Form: double-stranded DNA, one strand shown
Matrix: in vitro
Concentration: not given
Notes: 8-mer, flanks averaged, mean of 2 arrays, mostly near background
Relative to: not given
Reading: higher = stronger binding
Construct (chain): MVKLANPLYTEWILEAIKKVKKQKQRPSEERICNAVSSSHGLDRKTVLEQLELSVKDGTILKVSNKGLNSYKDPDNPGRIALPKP
Sequence | E-score
AGAGTACC | 0.0108
ATGGTAAC | -0.0991
ATCAGTTA | -0.103
GGGACGAC | 0.0363
CGTGTGCA | -0.0469
GCATAACC | 0.0733
CCCCCGGC | 0.334
ACTTGATC | -0.104

Study 2
Target: CCNB2, cyclin fold, Cln2 fusion (human)
Technique: yeast growth competition, sequencing
Matrix: yeast
Notes: strong parent motif
Relative to: not given
Reading: higher = stronger binding
Starting sequence: viral docking peptide; KKAKRRLFTISDS; partner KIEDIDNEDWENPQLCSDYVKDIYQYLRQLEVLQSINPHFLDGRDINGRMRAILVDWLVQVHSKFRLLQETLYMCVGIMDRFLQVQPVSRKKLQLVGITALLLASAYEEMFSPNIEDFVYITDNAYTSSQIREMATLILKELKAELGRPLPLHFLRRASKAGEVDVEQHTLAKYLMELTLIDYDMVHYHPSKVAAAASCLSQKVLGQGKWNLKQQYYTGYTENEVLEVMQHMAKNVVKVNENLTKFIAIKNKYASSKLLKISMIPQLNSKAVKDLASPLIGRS
Substitution | normalised enrichment score
K4A | 0.612
I10A | 0.852
K2A | 0.67
R5A | 0.881
R5K F8L | 0.302
R5K | 0.524
T9A | 0.473
D12A | 0.484

Mixed results
P1: PafA, mature enzyme, eGFP fusion (Elizabethkingia meningoseptica, UniProt Q9KJX5); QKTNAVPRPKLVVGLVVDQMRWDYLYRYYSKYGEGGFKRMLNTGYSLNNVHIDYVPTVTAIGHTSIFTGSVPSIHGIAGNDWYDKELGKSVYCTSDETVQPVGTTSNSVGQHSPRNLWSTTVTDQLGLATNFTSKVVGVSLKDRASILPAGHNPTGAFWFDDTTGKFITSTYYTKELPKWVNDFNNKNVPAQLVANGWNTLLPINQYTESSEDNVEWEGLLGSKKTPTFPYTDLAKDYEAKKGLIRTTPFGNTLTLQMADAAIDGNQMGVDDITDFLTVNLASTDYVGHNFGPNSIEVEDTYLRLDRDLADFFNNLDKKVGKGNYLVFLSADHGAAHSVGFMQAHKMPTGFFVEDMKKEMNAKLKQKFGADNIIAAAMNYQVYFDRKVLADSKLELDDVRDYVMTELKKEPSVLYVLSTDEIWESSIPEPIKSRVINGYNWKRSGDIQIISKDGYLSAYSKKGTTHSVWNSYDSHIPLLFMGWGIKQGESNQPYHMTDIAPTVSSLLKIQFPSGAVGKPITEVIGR
Molecule | target | test | system | conditions | how to read | measurement | value
P1 G44A | tungstate, free oxyanion | microfluidic competitive inhibition | in vitro, cell-free expressed | not given, derived from inhibition constants, unchanged parent 2230 nM | lower = stronger binding | oxyanion analog dissociation constant | 1.7 µM
ESIYKPRYQISIAYA | OGT (Homo sapiens, UniProt O15294) | binding, phage display NGS | peptide | panning round 2 | relative to: input library | minimum log2 enrichment ratio | 4.62

A few entries again (study 2):
Substitution | normalised enrichment score
R5K F8L | 0.302
